# Measurements pooled from the literature.
# ± gives the spread as reported.
# Organism: Bacillus cereus
SMILES,system,setting,endpoint,value
N=C(N)NCCC[C@@H]1NC(=O)[C@H](CCCNC(=N)N)NC(=O)[C@H](CCCNC(=N)N)NC(=O)[C@H](CCCNC(=N)N)NC(=O)[C@H](Cc2c[nH]c3ccccc23)NC(=O)[C@H](CCCNC(=N)N)NC(=O)[C@H](CCCNC(=N)N)NC(=O)[C@@H](N)CCn2cc(nn2)C[C@@H](C(N)=O)NC1=O,,"24 h, 37 °C",MIC,125 mg/L
CC(/C=C/C(O)=C1/C(=O)CNC1=O)=C\[C@@H](C)[C@H]1O[C@@]2(C)O[C@H](C(=O)[C@@H]3O[C@@]32CO)[C@@H]1C,,,MIC,3.13 µM
CCCCCCCCCCCCCCCCCCCCCCSCC1OC(OC2C(N)CC(N)C(OC3OC(CN)C(O)CC3N)C2O)C(O)C(N)C1O (stereo not shown),ATCC 11778,,MIC,> 150 mg/L
CC(CCC(=O)[O-])C1CCC2C3CCC4CC(O)CCC4(C)C3CC(O)C12C.C[N+](C)(C)CC(O)CC(=O)O (stereo not shown),TISTR 035,"1 mg per disc, 18 to 24 h, 37 °C, 6 mm disc",inhibition zone diameter,13.6 ± 1.4 mm
CC(=O)NC1C(OC2OC(CC(O)C3OC(n4ccc(=O)[nH]c4=O)C(O)C3O)C(O)C(O)C2NC(=O)C=CCCCCCCCCCC(C)C)OC(CO)C(O)C1O (stereo not shown),ATCC 1479,,MIC,> 50 mg/L
CN1CC(=O)N=C1N.C[C@H](CCC(=O)O)[C@H]1CC[C@H]2[C@@H]3CC[C@@H]4C[C@H](O)CC[C@]4(C)[C@H]3C[C@H](O)[C@]12C,TISTR 035,"1 mg per disc, 18 to 24 h, 37 °C, 6 mm disc",inhibition zone diameter,14.7 ± 0.5 mm
CCCCCCSCC1OC(OC2C(N)CC(N)C(OC3OC(CN)C(O)CC3N)C2O)C(O)C(N)C1O (stereo not shown),ATCC 11778,,MIC,> 150 mg/L
N=C(N)NCCC[C@@H]1NC(=O)[C@H](CCCNC(=N)N)NC(=O)[C@H](CCCNC(=N)N)NC(=O)[C@H](CCCNC(=N)N)NC(=O)[C@H](Cc2c[nH]c3ccccc23)NC(=O)[C@H](CCCNC(=N)N)NC(=O)[C@H](CCCNC(=N)N)NC(=O)[C@@H](N)CCCn2cc(nn2)C[C@@H](C(N)=O)NC1=O,,"24 h, 37 °C",MIC,125 mg/L
CCCCCCCCCCCC[S+]([O-])CC1OC(OC2C(N)CC(N)C(OC3OC(CN)C(O)CC3N)C2O)C(O)C(N)C1O (mixture of isomers),ATCC 11778,,MIC,9.4 mg/L
CC(=O)NC1C(OC2OC(CC(O)C3OC(n4ccc(=O)[nH]c4=O)C(O)C3O)C(O)C(O)C2NC(=O)COCc2ccc(N3CCC(Oc4ccc(OC(F)(F)F)cc4)CC3)cc2)OC(CO)C(O)C1O (stereo not shown),ATCC 1479,,MIC,> 50 mg/L

# Repeated from above:
SMILES,system,setting,endpoint,value
CC(=O)NC1C(OC2OC(CC(O)C3OC(n4ccc(=O)[nH]c4=O)C(O)C3O)C(O)C(O)C2NC(=O)C=CCCCCCCCCCC(C)C)OC(CO)C(O)C1O (stereo not shown),ATCC 1479,,MIC,> 50 mg/L
